Experimental data gathered from unrelated publications.
Every numbered part comes from another study and shows a few of its results, in no order. Changes are numbered by the printed parent chain.

Sample 1
Target: RNA binding protein fox-1 homolog 2, RRM domain, GST-SBP tag (RBFOX2, Homo sapiens, UniProt O43251-10, residues 100-194)
Technique: RNA Bind-n-Seq
Molecule type: RNA
Sample: in vitro
Concentration: 365 nM
Setting: natural RNA segment, single round, ends assumed
Relative to: no-protein control
Direction: higher = stronger binding
All sequences stand within: GGGAGUUCUACAGUCCGACGAUC … UGGAAUUCUCGGGUGCCAA
Construct (chain): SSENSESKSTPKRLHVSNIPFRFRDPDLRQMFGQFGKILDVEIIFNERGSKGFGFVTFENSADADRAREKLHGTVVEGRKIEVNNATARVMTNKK
Strand	RBNS enrichment (R)
GACUUCCCACCAAUGUCUAAACUAUUGUAAAAUAGUAUGAUUCUUUAGCCGUGUUUUGACUGUCUAGUAUUUCUAAAUAUUUCUCUGUAUCCUGGAUGGUCUCAUAACGU	0.344
AUUGUAUUUGAAUUUGUGCCUCUUUGUUUUUCCCCAAACCAAAGCCCUCAAAUUGUAGUCUCUGUCGGCUUCUGCAGAAUUCUGGAAAAUGCCAGUUUUCCUCCCCCGCC	0.472
UUUUGCUCCCUAUUUUAUGCUUUUUAAAAAUCUUUCACAGUGACUCACUUGAUUGAGCAUAUUGAUUUGAAAGAGCUAAGAUUUUCCUGCUUAAUGUCAGCCAUUGGCUC	0.399
AGAAUACACAAGCAGAGAAGGAUCGGGGUUAUGUCUCUUGGCAGUAGAUCCCAUUCAUACCUCUUCAAACCUAUUUGUUUUUUUUCUUUUGGGACUUAUAUGAUUUUAAA	0.559
CCUAGAGACCAACUCUGUUUCAUUUUAUUUUAUUUUUUAAUUUAUGUCUGGAAGCCUGGCUAAACUCUGCCUUCGGGACUGGGGGUAUUGGGUGGGGGUGCAGUCCAUGU	0.441

Sample 2
Target: Protein max, full length (MAX, Homo sapiens, UniProt P61244-2, residues 1-151)
Technique: protein-binding microarray
Molecule type: double-stranded DNA, one strand shown
Sample: in vitro
Concentration: not given
Setting: k-mer, scored over probes, only values ≥0.25
Direction: higher = stronger binding
Strand	E-score
CCATGAGG	0.418
CGCCATGA	0.263
CATGATTC	0.264
CATCGTGA	0.357
TCGTGCAA	0.299
CGTGTAAA	0.366
AGCCATGC	0.397

Sample 3
Target: CCNB1, cyclin fold, Cln2 fusion (human)
Technique: yeast growth competition, sequencing
Sample: yeast
Setting: weak parent motif
Relative to: not given
Direction: higher = stronger binding
Parent: SLBP docking peptide (human); ARYKRKLLINDFG
Change	normalised enrichment score
F12Y	1.4
I9W	1.02
F12M	0.0695
D11P	1.03
A1P	0.388
K4Q	-0.00373
G13E	0.819

Further values, each from its own experiment
Substance	target	assay	test system	conditions	how to read	measurement	value
PhoQ, residues 284 288 289 292 302 303 SLCLSL	PhoP, residues 12 14 15 18 19 AQALL (Escherichia coli, UniProt P23836)	Sort-seq, item: YFP reporter	E. coli	PhoQ-PhoP variant library, added: 10 µM Mg2+	relative to: high Mg2+ state, higher = stronger signaling	fold induction	5.62
